# Results of several laboratories.
# Every numbered part comes from another study and shows a few of its results, in no order. Changes are numbered by the printed parent chain.

# Sample 1 — target: CCNB2, cyclin fold, Cln2 fusion (human); method: yeast growth competition, sequencing; medium: yeast; setting: weak parent motif; baseline: not given; reading: higher = stronger binding
# Starting sequence: RBL2 docking peptide (human); STTRRRLFVENDS
Variant,normalised enrichment score
T2R,0.0439
N11S,0.421
L7H,0.308
E10I,0.0266
S1T,0.25
T2K,1.3
R6P,-0.366
F8R,0.357

# Sample 2 — method: RNA Bind-n-Seq; form: RNA; medium: in vitro; concentration: 200 nM; setting: whole 134-nt RNA, ends assumed; added: 150 mM LiCl; baseline: input library; reading: higher = stronger binding; all molecules: 7-deaza-guanosine replaces G
# Target: Fragile X messenger ribonucleoprotein 1, C-terminal low-complexity region (Fmr1, Mus musculus, UniProt P35922)
Strand,log2 enrichment
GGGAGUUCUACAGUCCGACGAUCCACAGACAACACGCACCCACACAGACACAGAGGGAAAAAGUUGGGAUGGGGACAGGGUGCACAGCAGGGCGGGGUAGGACCCCAGCCCCUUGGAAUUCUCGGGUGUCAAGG,-1.36
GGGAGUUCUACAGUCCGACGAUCUCAAGUCCUGUGCUACACAUCGUAUGUACCGAAUCGGGCCCGGCCCGGGCCCGGGAAAGUAUUAUGUUACGCCGUUCGGAUCUGCACUUCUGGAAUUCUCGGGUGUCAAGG,-1.75
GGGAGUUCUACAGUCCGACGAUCCCUGUGCUACACAUCGUAUGUACCGAAUCGGGCCCCCCGGGGCCCCCCGGGCCCCCCGGGAAAGUAUUAUGUUACGCCGUUCGGAUCUGCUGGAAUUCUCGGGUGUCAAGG,-3.1
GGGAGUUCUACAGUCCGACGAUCUGGCCCUGGUGGCAUGCGGGGACGAAGAGGUGGCCUCAUGGAUCGUGGUGGUCCCGGUGGAAUGUUCAGAGGUGGCCGUGGUGGAGACAGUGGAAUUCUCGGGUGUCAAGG,0.0336
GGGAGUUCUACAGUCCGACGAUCUGGGAGGUGGAUUUUGUUUAUUUUUUUAGCUCAUUUCCAGGGGUGGGAAUUUUUUUUAAAUAUGUGUCAUGAAUAAAGUUGUUUUUGAAAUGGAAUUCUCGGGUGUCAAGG,-0.329
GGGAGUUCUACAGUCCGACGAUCUCCUCAAGUCCUGUGCUACACAUCGUAUGUACCGAAUCGGUGGAAAGGAGGAAAGUAUUAUGUUACGCCGUUCGGAUCUGCACUUCCAGCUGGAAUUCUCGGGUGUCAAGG,-0.493
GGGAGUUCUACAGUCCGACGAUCCUCAAGUCCUGUGCUACACAUCGUAUGUACCGAAUCGGAAGGGGAAGGGGAAGGAAAGUAUUAUGUUACGCCGUUCGGAUCUGCACUUCCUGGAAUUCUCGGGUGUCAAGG,-0.192
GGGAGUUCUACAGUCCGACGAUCUGUGCUACACAUCGUAUGUACCGAAUCGGGGAAAAAAAGGGGUUUUUUUGGGGAAAAAGGGGAAAGUAUUAUGUUACGCCGUUCGGAUCUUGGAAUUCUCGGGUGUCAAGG,-1.64

# Sample 3 — method: protein binding microarray; form: double-stranded DNA, one strand shown; medium: in vitro; concentration: not given; baseline: not given; reading: higher = stronger binding
# Target: Histone acetyltransferase KAT6A, both winged helices, GST fusion (KAT6A, Homo sapiens, UniProt Q92794, residues 1-181)
# Setting: 8-mer, flanks averaged, mean of 2 arrays, mostly near background
# Construct (chain): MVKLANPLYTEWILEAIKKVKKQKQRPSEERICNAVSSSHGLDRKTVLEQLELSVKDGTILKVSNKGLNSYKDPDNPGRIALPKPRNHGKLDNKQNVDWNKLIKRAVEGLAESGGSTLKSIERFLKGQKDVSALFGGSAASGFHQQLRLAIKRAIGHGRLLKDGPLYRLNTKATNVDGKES
Strand,E-score
AAGTTAAT,-0.164
ACCGAAGC,0.0466
AGTTTGGC,0.0818
CCTAAGAA,-0.106
TTATATAA,0.073
AACAGGGT,-0.259
AAGTAATT,-0.174
AGTCGTAT,-0.0689

# Further values, each from its own experiment
Substance,target,test,test system,conditions,how to read,measurement,value
"PhoQ, residues 284 288 289 292 302 303 TTSMTC","PhoP, residues 12 14 15 18 19 NIMAP (Escherichia coli, UniProt P23836)","Sort-seq, measured: YFP reporter",E. coli,"PhoQ-PhoP variant library, added: 10 µM Mg2+","baseline: high Mg2+ state, higher = stronger signaling",fold induction,0.719

# Repeated from above (sample 2):
Strand,log2 enrichment
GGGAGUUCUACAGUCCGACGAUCUGGGAGGUGGAUUUUGUUUAUUUUUUUAGCUCAUUUCCAGGGGUGGGAAUUUUUUUUAAAUAUGUGUCAUGAAUAAAGUUGUUUUUGAAAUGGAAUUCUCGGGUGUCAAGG,-0.329
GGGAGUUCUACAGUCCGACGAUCUCCUCAAGUCCUGUGCUACACAUCGUAUGUACCGAAUCGGUGGAAAGGAGGAAAGUAUUAUGUUACGCCGUUCGGAUCUGCACUUCCAGCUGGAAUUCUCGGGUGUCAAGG,-0.493
